Assay results gathered from unrelated publications.
Numbered parts are unrelated; each lists some results of a single study. Substitutions count along the parent as printed.

Set 1
Target: RNA binding protein fox-1 homolog 2, RRM domain, GST-SBP tag (RBFOX2, Homo sapiens, UniProt O43251-10, residues 100-194)
Technique: RNA Bind-n-Seq
Form: RNA
Matrix: in vitro
Concentration: 365 nM
Notes: natural RNA segment, single round, ends assumed
Baseline: no-protein control
Direction: higher = stronger binding
Quantity: RBNS enrichment (R)
Shared flanks, not repeated: GGGAGUUCUACAGUCCGACGAUC … UGGAAUUCUCGGGUGCCAA
Construct (chain): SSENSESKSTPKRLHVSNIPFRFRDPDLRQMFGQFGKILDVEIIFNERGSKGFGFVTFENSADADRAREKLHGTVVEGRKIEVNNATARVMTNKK
CUAAGCACGAAUAAGAUAUCUGCUUACAUUAAUUUUUAUAAAGUCAUUCAGUCAGAAUUUAGGAUUCAGUCAUUGGCAGGUAUCUAUGCAUUCGUAGAACUUCUAAGGGU: 2.63
ACGCUGAACUGGUGUAGCAUGUGGUGCAGCAUUCAGUGAAACUGGCUGGAGGAAAUAGGCUUGUUUCCAGAGUUGUCCUUAUACAAAAUGUAUAAAAAGCAGUUUCUGGU: 13.9
UGGGGCUCAAGCCUGGUGCACUUAGUAUAGAAGAGCUAACGUACUCAGGCUUGUGCCACGGGUGAGCACUGAGGCCCCAGGUGUCCUCCCUCCCCCACUGUCUGGGACAC: 0.419
CAAGCACUUUUCCAUCCCUGGCGGGAUGGGUGGAUAGAACAUUUUUUUUAUUCAGCAUACAUUUUCUUUAUGUAGGAGCAGGAAUCGAACAAGCCUCUGUGAAUAUUUUC: 0.639
UUUUUCCCCCUUGAGGUUAUUGUUUCUUCCUAAUUUAUAUUUCAGAUACAUAGUGUAGAACAGGAAUUUGCAGAAGCCAUUUAAGUUAUCUUUUGAGGUAAGCUCUGAUU: 0.488
AAGCAGUCACAUAAGUGGGUACCUAUCCAGCCAUUCUCUUUUCAGAGCAUAUAAUACUAUCUUAGCCAAACUUGCCUUUGCUUCACUCAUCAUGCAGCCUUCUGGGUUGG: 0.383
UAGCCAGAGAAUGGUUCAAAUGUCUUACAGAACUAAGAUCUUUUUCAGAGAAAUUGCUCACAAAAGUUAGUGACAGUUGUAUUUAUUUUUUUAAGUUACAAUAAAAUGCU: 0.851
GGUGCACCUCCCUUUUCAGGCACUCUGAGUGUCCUUCCCACCCAUGACAAGGCAACCACAGAAGUCAGAACAAUCAGGCUUGAGUGGGUGGCCAGGUCAGCUACUGCCCU: 0.25
CCUAUGCUAGCGACUGUGCUGGUUUCUUCUCUCCGGGCAUCUGGAUGGGUCUGCUCACCACCCUCUUCAUGCUUUUCAUAUUCACCUAUGGUCUGCACAUGAUACUCAGC: 0.441
AAGAAUGCAUUGAUAUUGUGAACAUUUGUGAUACAUGUAUUAAUAAAUAGAGCAAUUAAAAAUGGCUAUGUUGUGGUUUUCUUCUUUGAUUGCGAUGACAAUCUCUGAAU: 0.362
UCCAUUCCUUACUAUUCACUCACUCAUCUGUCUCCCUUCAUUUCACUGUUAGACUCUUUUCCACUUUCAACAAACUUGCAUGUCAGUUUCUGUCAUGUUUAUUUAUUGGA: 0.952
UGACUGUCCUUACGUCCUCUCUGUUUAGAGUCUUAUUUAUUCUGCCCUUUUAACCAGUGCUGUGAUGGAUGAAGGCCAAUCUUGUUUCCUUUCAUCUAGUACCUGGACCA: 0.411

Set 2
Target: Interferon regulatory factor 5, full length, phosphomimetic (IRF5, Homo sapiens, UniProt Q13568-2, residues 1-514, S451D/S453D/S456D/S462D)
Technique: protein-binding microarray
Form: double-stranded DNA, one strand shown
Matrix: in vitro
Concentration: 940 nM top
Notes: 60-bp whole probe
Added: salmon DNA 0.4 mg/ml
Baseline: random background probes
Direction: higher = stronger binding
Quantity: fitted relative affinity
Shared flanks, not repeated: GCCTAGCAC … GTCTTGATTCGCTTGACGCTGCTG
GACGGTTTCCTTTCCCTGAAGTGCTAG: 1.57 z-score
GACGATTTCAGTAACGAGACGTGCTAG: 0.339 z-score
AGAAGATAAGCTGCAAGAAAGTGCTAG: -0.536 z-score
GACCAACTGAGTATCGAGACGTGCTAG: 1.5 z-score
TCACCTCAGGGTTTCAGACTGTGCTAG: -0.00726 z-score
TTCGATATCAGTATCGATTAGTGCTAG: 5.3 z-score
GACGGTATAGGTTTCGGGACGTGCTAG: 3.13 z-score
TTAGGTTCCCTTTTCGTTTAGTGCTAG: 1.29 z-score
AACCGCACAGAACTAAAACAGTGCTAG: -0.089 z-score
CATTGCCTATTTTTCACCTGGTGCTAG: 1.05 z-score
GACGATTTCGGGTTTTGAGACGTGCTA: 0.471 z-score
TCATCATTCCTGATCTCACTGTGCTAG: 0.518 z-score
GACGGACTGTTACTGCTGACGTGCTAG: -0.254 z-score
GACGGACTGGGTACCGGGACGTGCTAG: -0.548 z-score
TTAGGTTTCGGAATCGGTTAGTGCTAG: 9.01 z-score
AATACCTTCGAGTCTGCAACAGTGCTA: 0.35 z-score
GACGGACTGGACTATCGAGACGTGCTA: -0.183 z-score
GATGGTCTCGGTCTCGGGACGTGCTAG: 4.65 z-score
CTCTGTCCCTGTTTCTACTGGTGCTAG: 1.37 z-score
GACGAGCTCAGTATCGAGACGTGCTAG: 2.38 z-score
TTGGGACTGGGTCTCGGTTAGTGCTAG: 1.18 z-score
TTAGGTACCGACTTTCGGTTAGTGCTA: 2.74 z-score

Set 3
Target: CCND1, cyclin fold, Cln2 fusion (human)
Technique: yeast growth competition, sequencing
Matrix: yeast
Notes: strong parent motif
Baseline: not given
Direction: higher = stronger binding
Quantity: normalised enrichment score
Starting sequence: PKN2 docking peptide (human); VSAVQKLDFSDTM; partner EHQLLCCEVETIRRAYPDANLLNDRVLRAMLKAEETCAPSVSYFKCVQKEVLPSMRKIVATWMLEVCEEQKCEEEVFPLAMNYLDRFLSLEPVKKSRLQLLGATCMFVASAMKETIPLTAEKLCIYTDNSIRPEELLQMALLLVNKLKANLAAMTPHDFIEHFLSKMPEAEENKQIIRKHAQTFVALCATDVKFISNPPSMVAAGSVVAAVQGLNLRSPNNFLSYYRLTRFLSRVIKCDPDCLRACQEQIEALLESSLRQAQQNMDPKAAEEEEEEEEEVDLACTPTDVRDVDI
VSAVQKLDFPDTM [S10P]: 1.19
VSAVQKTDFSDTM [L7T]: -0.201
VSAVQKLDFFDTM [S10F]: 1.03
VSLVQKLDFSDTM [A3L]: 1.32
VSAVQKLDFGDTM [S10G]: 1.91
VSAVQKLDASDTM [F9A]: 0.376
VSAVQKLDFSDTF [M13F]: 1.74
VRAVQKLDFSDTM [S2R]: 2.51
VQAVQKLDFSDTM [S2Q]: 2.12
VSAVQKIDFSDTM [L7I]: 1.19
RSAVQKLDFSDTM [V1R]: 2.67
VSAVQKPDFSDTM [L7P]: 0.189
VSAVQKLDFQDTM [S10Q]: 0.66
VYAVQKLDFSDTM [S2Y]: 1.39
VSAVQKLMFSDTM [D8M]: 0.983
VVAVQKLDFSDTM [S2V]: 0.875
VSAVQKWDFSDTM [L7W]: 0.544
VHAVQKLDFSDTM [S2H]: 1.72
VSAVQKADFSDTM [L7A]: -0.153
VSAVQKLDFSDTK [M13K]: 1.51
VSAVQKLDFCDTM [S10C]: 1.76
VSAVQKLDFSDHM [T12H]: 2.51
VSAHQKLDFSDTM [V4H]: 0.814
VSAVQKLDFSDDM [T12D]: 2.34
VSYVQKLDFSDTM [A3Y]: 0.567

Set 4
Target: BATF2, bZIP domain (human)
Technique: DHFR protein complementation
Matrix: yeast
Notes: single substitutions, most at no-binding floor
Baseline: wild-type JUN-FOS pair
Direction: higher = stronger binding
Quantity: binding fitness
Starting sequence: JUN, bZIP domain (human); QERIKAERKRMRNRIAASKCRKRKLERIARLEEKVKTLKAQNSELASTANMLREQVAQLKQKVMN; partner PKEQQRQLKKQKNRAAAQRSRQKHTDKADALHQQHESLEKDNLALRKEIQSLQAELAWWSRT
N42H: -0.617 natural log
L45Y: -1.08 natural log
R30P: -0.527 natural log
L31S: -1.04 natural log
V56Q: -1.29 natural log
Q55N: -0.767 natural log
E32V: -0.512 natural log
R53M: -1.12 natural log
T37M: 0.163 natural log
I28P: -0.744 natural log
M51V: -0.334 natural log
A46V: -0.305 natural log
A46I: -0.31 natural log
R30C: -0.316 natural log
